{"data": "Literature values as cited in several papers", "note": "Lines come from different studies, so protocols differ. Numbers after ± are the reported error.", "chain of UniProt P06536 (whole entry, looked up)": "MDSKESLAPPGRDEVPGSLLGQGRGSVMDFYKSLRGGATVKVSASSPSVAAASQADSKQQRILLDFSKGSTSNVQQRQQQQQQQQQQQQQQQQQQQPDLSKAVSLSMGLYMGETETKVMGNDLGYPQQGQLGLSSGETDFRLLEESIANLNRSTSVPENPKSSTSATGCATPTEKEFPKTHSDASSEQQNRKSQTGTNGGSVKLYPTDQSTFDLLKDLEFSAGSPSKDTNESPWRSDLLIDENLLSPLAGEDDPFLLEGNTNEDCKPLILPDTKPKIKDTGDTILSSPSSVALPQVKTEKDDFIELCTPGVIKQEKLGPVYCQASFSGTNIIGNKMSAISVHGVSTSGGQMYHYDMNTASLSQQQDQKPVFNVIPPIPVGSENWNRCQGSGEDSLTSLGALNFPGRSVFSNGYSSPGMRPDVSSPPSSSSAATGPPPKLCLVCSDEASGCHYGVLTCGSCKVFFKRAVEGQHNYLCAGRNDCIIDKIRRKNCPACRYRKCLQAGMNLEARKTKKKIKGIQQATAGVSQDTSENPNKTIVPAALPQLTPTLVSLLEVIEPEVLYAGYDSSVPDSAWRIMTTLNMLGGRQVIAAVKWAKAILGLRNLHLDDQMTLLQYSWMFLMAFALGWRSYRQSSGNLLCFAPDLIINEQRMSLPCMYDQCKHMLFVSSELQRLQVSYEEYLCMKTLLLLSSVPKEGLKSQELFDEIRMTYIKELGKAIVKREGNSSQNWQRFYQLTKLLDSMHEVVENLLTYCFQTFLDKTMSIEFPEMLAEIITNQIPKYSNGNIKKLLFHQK", "chain of UniProt Q9UNU6 (whole entry, looked up)": "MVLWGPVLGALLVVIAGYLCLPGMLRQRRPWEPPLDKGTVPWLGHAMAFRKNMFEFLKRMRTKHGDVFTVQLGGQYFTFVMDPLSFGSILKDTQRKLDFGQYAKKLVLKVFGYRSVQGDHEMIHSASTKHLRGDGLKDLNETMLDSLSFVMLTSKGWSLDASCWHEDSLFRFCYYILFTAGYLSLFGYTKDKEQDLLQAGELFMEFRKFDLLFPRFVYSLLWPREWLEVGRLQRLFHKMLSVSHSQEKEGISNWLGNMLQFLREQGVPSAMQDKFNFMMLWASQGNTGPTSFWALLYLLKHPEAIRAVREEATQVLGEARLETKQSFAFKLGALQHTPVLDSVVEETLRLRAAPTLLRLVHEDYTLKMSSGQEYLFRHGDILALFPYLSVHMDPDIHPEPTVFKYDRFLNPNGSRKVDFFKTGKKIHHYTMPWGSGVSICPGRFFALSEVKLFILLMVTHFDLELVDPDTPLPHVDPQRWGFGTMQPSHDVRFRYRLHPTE", "chain of UniProt P24462 (whole entry, looked up)": "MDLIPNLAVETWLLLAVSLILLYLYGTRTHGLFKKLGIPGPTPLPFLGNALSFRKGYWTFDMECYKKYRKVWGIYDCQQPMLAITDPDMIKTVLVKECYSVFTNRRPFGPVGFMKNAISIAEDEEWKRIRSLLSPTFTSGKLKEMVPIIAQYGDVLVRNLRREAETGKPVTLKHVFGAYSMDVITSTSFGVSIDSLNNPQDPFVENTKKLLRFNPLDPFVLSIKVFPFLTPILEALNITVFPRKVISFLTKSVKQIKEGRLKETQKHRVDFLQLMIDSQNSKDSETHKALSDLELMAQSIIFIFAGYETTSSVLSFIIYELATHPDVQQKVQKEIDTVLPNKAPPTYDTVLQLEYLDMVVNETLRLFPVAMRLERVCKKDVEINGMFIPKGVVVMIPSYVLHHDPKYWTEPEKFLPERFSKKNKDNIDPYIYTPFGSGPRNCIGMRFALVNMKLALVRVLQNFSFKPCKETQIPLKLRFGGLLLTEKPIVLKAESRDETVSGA", "chain of UniProt Q9Y2H1 (whole entry, looked up)": "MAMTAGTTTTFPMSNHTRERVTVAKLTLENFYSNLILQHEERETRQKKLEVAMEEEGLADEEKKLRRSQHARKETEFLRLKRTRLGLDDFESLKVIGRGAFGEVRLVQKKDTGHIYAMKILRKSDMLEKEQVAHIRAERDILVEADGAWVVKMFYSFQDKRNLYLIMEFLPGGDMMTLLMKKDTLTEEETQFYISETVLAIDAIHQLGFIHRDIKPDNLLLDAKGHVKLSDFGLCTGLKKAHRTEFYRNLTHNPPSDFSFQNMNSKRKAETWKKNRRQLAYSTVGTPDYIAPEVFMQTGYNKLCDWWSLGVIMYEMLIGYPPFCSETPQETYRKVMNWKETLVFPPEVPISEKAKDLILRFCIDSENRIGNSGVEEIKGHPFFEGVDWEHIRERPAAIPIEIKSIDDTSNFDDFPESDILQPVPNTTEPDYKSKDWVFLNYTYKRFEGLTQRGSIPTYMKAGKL"}
{"Compound": "O=C(O)CN1CCN(CC(=O)O)CCN(CC(=O)O)CC1", "target or system": "Cu2+", "conditions": "pH 7.4", "measurement": "pCu", "value": 17.6}
{"Compound": "CO[C@]1(C(=O)N[C@@H](C)c2ccc(-n3cc(F)cn3)nc2)CC[C@H](c2nc(C)cc(Nc3cc(C)[nH]n3)n2)CC1", "target or system": "BCRP", "test system": "MDCK-BCRP", "conditions": "with: Ko143", "measurement": "efflux ratio decrease", "value": "55.4%"}
{"Compound": "COc1cc(/C=C/C(=O)CC(=O)/C=C/c2ccc(O)c(OC)c2)ccc1O", "target or system": "BCRP", "test": "inhibitor", "measurement": "Ki", "value": "700 ± 410 nM"}
{"Compound": "CCCCN(C)CC#Cc1ccc2[nH]c(C)c(Cl)c(=O)c2c1", "target or system": "Plasmodium falciparum", "test": "whole cell extended time", "test system": "3D7", "conditions": "72 h", "measurement": "IC50", "value": "130 nM"}
{"Compound": "CNCC(=O)O", "target or system": "N-methyltryptophan oxidase wild type", "conditions": "bound to enzyme", "measurement": "pKa", "value": 9.1}
{"Compound": "CO[C@H]1/C=C/O[C@@]2(C)Oc3c(C)c(O)c4c(O)c(c(/C=N/N5CCN(C)CC5)c(O)c4c3C2=O)NC(=O)/C(C)=C\\C=C\\[C@H](C)[C@H](O)[C@@H](C)[C@@H](O)[C@@H](C)[C@H](OC(C)=O)[C@@H]1C", "target or system": "OATP1B1 and OATP1B3", "how to read": "reference: IC50 over clinical Cmax", "measurement": "IC50 to Cmax ratio", "value": "> 10 fold"}
{"Compound": "CC(C)CCC[C@@H](C)[C@H]1CC[C@H]2[C@@H]3[C@H](O)CC4=CC(=O)CC[C@]4(C)[C@H]3CC[C@]12C", "target or system": "7-alpha-hydroxycholest-4-en-3-one 12-alpha-hydroxylase (Homo sapiens, UniProt Q9UNU6)", "test": "binding", "measurement": "Kd", "value": "18 nM"}
{"Compound": "C=C(C)C(=O)OCCC(F)(F)C(F)(F)C(F)(F)C(F)(F)C(F)(F)C(F)(F)F", "target or system": "CYP2D6", "conditions": "concentration not given", "measurement": "activity", "value": "inactive"}
{"Compound": "C=CC(=O)Nc1cc(Nc2nccc(-c3cn(C)c4ccccc34)n2)c(OC)cc1N(C)CCN(C)C", "target or system": "CYP3A5", "measurement": "metabolism contribution", "value": "9.6%"}
{"Compound": "NS(=O)(=O)C(F)(F)C(F)(F)C(F)(F)C(F)(F)C(F)(F)C(F)(F)C(F)(F)C(F)(F)F", "target or system": "CYP2D6", "conditions": "concentration not given", "measurement": "activity", "value": "inactive"}
{"Compound": "O=C1Nc2ccc(Cl)cc2[C@@](C#CC2CC2)(C(F)(F)F)O1", "target or system": "2B6", "conditions": "Simcyp compound file", "measurement": "intrinsic clearance", "value": "1.36 µL/min/pmol"}
{"Compound": "CCCn1cc(C)c2c(=O)[nH]c(-c3cc(S(=O)(=O)N4CCN(CC)CC4)ccc3OCC)nc21", "target or system": "CYP3A4 and CYP3A5 (human)", "test": "substrate", "test system": "human liver microsomes", "measurement": "metabolized fraction", "value": "~90%"}
{"Compound": "CCNS(=O)(=O)C(F)(F)C(F)(F)C(F)(F)C(F)(F)C(F)(F)C(F)(F)C(F)(F)C(F)(F)F", "target or system": "CYP1A2", "conditions": "concentration not given", "measurement": "activity", "value": "inactive"}
{"Compound": "CC(=O)C(C)n1ncn(-c2ccc(N3CCN(c4ccc(OC[C@H]5CO[C@](Cn6cncn6)(c6ccc(Cl)cc6Cl)O5)cc4)CC3)cc2)c1=O (stereo partly drawn)", "target or system": "CYP3A4 human", "test": "substrate", "measurement": "Vmax", "value": "86.9 pmol/min/nmol"}
{"Compound": "Cc1ccc(C)c(OCCCC(C)(C)C(=O)O)c1", "target or system": "UGT2B7", "test": "O-glucuronidation, substrate", "conditions": "unbound", "measurement": "Km", "value": "2.17 µM"}
{"Compound": "C[C@H]1COCCN1c1nc(-c2cnc(N)cc2C(F)F)nc(N2CCOCC2)n1", "target or system": "SJCRH30", "measurement": "GI50", "value": "442 nM"}
{"Compound": "NC(=O)c1cccnc1", "target or system": "CYP2E1 (human)", "test": "substrate", "test system": "human liver microsomes", "measurement": "Km", "value": "2980 µM"}
{"Compound": "Nc1cc(C(F)(F)F)c(-c2nc(N3CCOCC3)nc(N3CCOCC3)n2)cn1", "target or system": "STK38L (Homo sapiens, UniProt Q9Y2H1)", "test": "enzyme activity", "conditions": "10 µM", "how to read": "reference: untreated", "measurement": "remaining activity", "value": "93%"}
{"Compound": "CNC(C)C1CCC(N)C(OC2C(N)CC(N)C(OC3OCC(C)(O)C(NC)C3O)C2O)O1 (stereo not drawn)", "target or system": "Pseudomonas aeruginosa", "test system": "clinical isolate RKI-No_46/14", "measurement": "MIC", "value": "> 8 µg/mL"}
{"Compound": "CCC(C)n1ncn(-c2ccc(N3CCN(c4ccc(OCC5COC(Cn6cncn6)(c6ccc(Cl)cc6Cl)O5)cc4)CC3)cc2)c1=O (stereo not drawn)", "target or system": "CYP3A5", "measurement": "Ki", "value": "940 nM"}
{"Compound": "CN/C(=N/CCSCc1nc[nH]c1C)NC#N", "target or system": "SLC22A8", "test": "substrate", "measurement": "Km", "value": "162 µM"}
{"Compound": "CC(=O)Nc1ccc(O)cc1", "target or system": "CYP2C9", "test": "substrate", "measurement": "Km", "value": "660 µM"}
{"Compound": "CO[C@H]1/C=C/O[C@@]2(C)Oc3c(C)c(O)c4c(O)c(c(/C=N/N5CCN(C)CC5)c(O)c4c3C2=O)NC(=O)/C(C)=C\\C=C\\[C@H](C)[C@H](O)[C@@H](C)[C@@H](O)[C@@H](C)[C@H](OC(C)=O)[C@@H]1C", "target or system": "P-glycoprotein (MDR1)", "test": "inhibitor", "measurement": "Ki", "value": "4000 to 23000 nM"}
{"Compound": "CC1(C)S[C@@H]2[C@H](NC(=O)[C@H](N)c3ccccc3)C(=O)N2[C@H]1C(=O)O", "target or system": "Pseudomonas aeruginosa", "test system": "clinical isolate RKI-No_46/14", "measurement": "MIC", "value": "> 16 µg/mL"}
{"Compound": "C=CC[C@@H]1/C=C(\\C)C[C@H](C)C[C@H](OC)[C@H]2O[C@@](O)(C(=O)C(=O)N3CCCC[C@H]3C(=O)O[C@H](/C(C)=C/[C@@H]3CC[C@@H](O)[C@H](OC)C3)[C@H](C)[C@@H](O)CC1=O)[C@H](C)C[C@@H]2OC", "target or system": "CYP3A5", "test": "metabolism, substrate", "conditions": "unbound fraction unadjusted", "measurement": "Km", "value": "1.4 µM"}
{"Compound": "CC[C@H]1OC(=O)[C@H](C)[C@@H](O[C@H]2C[C@@](C)(OC)[C@@H](O)[C@H](C)O2)[C@H](C)[C@@H](O[C@@H]2O[C@H](C)C[C@H](N(C)C)[C@H]2O)[C@](C)(OC)C[C@@H](C)C(=O)[C@H](C)[C@@H](O)[C@]1(C)O", "target or system": "P-glycoprotein (ABCB1)", "test": "inhibitor", "test system": "gut", "conditions": "Simcyp library default value", "measurement": "Ki", "value": "4000 nM"}
{"Compound": "CCC(=O)O[C@]1(C(=O)SCF)[C@H](C)C[C@H]2[C@@H]3C[C@H](F)C4=CC(=O)C=C[C@]4(C)[C@@]3(F)[C@@H](O)C[C@@]21C", "target or system": "Nr3c1 (Rattus norvegicus, UniProt P06536)", "test system": "rat, spleen", "conditions": "intravenous, 90 nmol/kg, 2.017 (unit not given)", "measurement": "receptor occupancy", "value": "35.3%"}
{"Compound": "Cc1ccc2[nH]c(C)c(Br)c(=O)c2c1", "target or system": "Plasmodium falciparum", "test": "whole cell extended time", "test system": "3D7", "conditions": "72 h", "measurement": "IC50", "value": "810 nM"}
{"Compound": "FC(F)(F)C(F)(F)C(F)(F)C(F)(F)C(F)(F)C(F)(F)C(F)(F)C(F)(F)C(F)(F)C(F)(F)F", "target or system": "CYP2D6", "conditions": "concentration not given", "measurement": "activity", "value": "inactive"}
{"Compound": "OC(Cn1cncn1)(Cn1cncn1)c1ccc(F)cc1F", "target or system": "CYP3A5", "test": "enzyme activity, inhibitor", "measurement": "Ki", "value": "53000 to 148000 nM"}
{"Compound": "CO[C@H]1C[C@@H]2CC[C@@H](C)[C@@](O)(O2)C(=O)C(=O)N2CCCC[C@H]2C(=O)O[C@H]([C@H](C)C[C@@H]2CC[C@@H](O)[C@H](OC)C2)CC(=O)[C@H](C)/C=C(\\C)[C@@H](O)[C@@H](OC)C(=O)[C@H](C)C[C@H](C)/C=C/C=C/C=C/1C", "target or system": "Cytochrome P450 3A7 (CYP3A7, Homo sapiens, UniProt P24462)", "test system": "enzyme incubation", "measurement": "fraction unbound in incubation", "value": 0.43}
{"Compound": "Cc1cc(-c2nccc3c2ccn3CC(=O)Nc2ccc(-c3cnccn3)cn2)ccn1", "target or system": "hERG potassium channel", "test": "ion current, inhibitor", "conditions": "18.4 µM", "measurement": "inhibition", "value": "30.5 ± 4.4%"}
{"Compound": "CCn1c(=O)c(-c2cc(NC(=O)Nc3ccccc3)c(F)cc2Br)cc2cnc(N)cc21", "target or system": "human alpha-1-acid glycoprotein", "measurement": "plasma protein binding", "value": "> 99.8%"}
{"note": "Repeated from above:"}
{"Compound": "Cc1ccc2[nH]c(C)c(Br)c(=O)c2c1", "target or system": "Plasmodium falciparum", "test": "whole cell extended time", "test system": "3D7", "conditions": "72 h", "measurement": "IC50", "value": "810 nM"}
{"Compound": "FC(F)(F)C(F)(F)C(F)(F)C(F)(F)C(F)(F)C(F)(F)C(F)(F)C(F)(F)C(F)(F)C(F)(F)F", "target or system": "CYP2D6", "conditions": "concentration not given", "measurement": "activity", "value": "inactive"}
{"Compound": "OC(Cn1cncn1)(Cn1cncn1)c1ccc(F)cc1F", "target or system": "CYP3A5", "test": "enzyme activity, inhibitor", "measurement": "Ki", "value": "53000 to 148000 nM"}
